Measurements pooled from the literature.
Each numbered part is a random draw from the data of one study; scales do not carry over between parts.

Series 1
Target: Interferon regulatory factor 7, full length, phosphomimetic (IRF7, Homo sapiens, UniProt Q92985, residues 1-503, S471D/S472D/S475D/S476D/S477D/S483D/S484D/S487D)
Method: protein-binding microarray
Molecule type: double-stranded DNA, one strand shown
Matrix: in vitro
Concentration: 2200 nM top
Notes: 60-bp whole probe
Together with: salmon DNA 0.4 mg/ml
Baseline: random background probes
Reading: higher = stronger binding
Endpoint: fitted relative affinity
All sequences stand within: GCCTAGCAC … GTCTTGATTCGCTTGACGCTGCTG
Target sequence (chain): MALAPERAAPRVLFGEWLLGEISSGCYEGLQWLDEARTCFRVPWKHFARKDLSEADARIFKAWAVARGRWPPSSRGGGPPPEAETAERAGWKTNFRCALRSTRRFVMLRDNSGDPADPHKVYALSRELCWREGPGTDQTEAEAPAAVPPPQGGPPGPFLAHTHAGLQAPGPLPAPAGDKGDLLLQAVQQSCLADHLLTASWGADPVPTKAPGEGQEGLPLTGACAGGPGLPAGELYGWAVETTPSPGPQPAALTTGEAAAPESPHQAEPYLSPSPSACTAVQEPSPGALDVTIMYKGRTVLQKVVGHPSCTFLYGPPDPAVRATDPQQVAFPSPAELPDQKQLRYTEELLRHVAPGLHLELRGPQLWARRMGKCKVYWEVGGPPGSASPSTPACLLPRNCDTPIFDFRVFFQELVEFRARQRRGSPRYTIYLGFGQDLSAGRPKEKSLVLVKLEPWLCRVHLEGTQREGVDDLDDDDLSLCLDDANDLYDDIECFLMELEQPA
Oligonucleotide = TTAGATTTCGGGTTTCGAGTAGTGCTA; result = 5.45 z-score
Oligonucleotide = CAGAATCTCTCATGTTACATTGTGCTA; result = 0.583 z-score
Oligonucleotide = GACGATCTCATTTTCGAGACGTGCTAG; result = 3.84 z-score
Oligonucleotide = TCCACTTGTCTTTTCATTTTGTGCTAG; result = 3.36 z-score
Oligonucleotide = ATCTTTTTCCCTATTATATAGTGCTAG; result = 2.33 z-score
Oligonucleotide = TCATTTATATGCTATGTAACTGTGCTA; result = 1.05 z-score
Oligonucleotide = TTGCCTTTTGCTTTACTGATGTGCTAG; result = 3.34 z-score
Oligonucleotide = TTAGGTTTCGGTTTAGGTTAGTGCTAG; result = 13.3 z-score
Oligonucleotide = TTTTCACTTTCTTTAACTCAGTGCTAG; result = 5.44 z-score
Oligonucleotide = TCTCTGTTCTTTTCAGTCCCGTGCTAG; result = 2.76 z-score
Oligonucleotide = TCATGTTTCCTTGTACGACTGTGCTAG; result = 2.41 z-score
Oligonucleotide = GACGGTCTCCTTATCCAGACGTGCTAG; result = 0.839 z-score
Oligonucleotide = TTAGATATCGAGTATCGATTAGTGCTA; result = -0.0645 z-score
Oligonucleotide = TTAGATATCAATATCGATTAGTGCTAG; result = -0.174 z-score
Oligonucleotide = CTCGTGGTCCTGCCCTGCCTGTGCTAG; result = -0.426 z-score
Oligonucleotide = TTAGGACTGGTGTATCGGTTAGTGCTA; result = -0.201 z-score
Oligonucleotide = TTTGATATCAGTTTCGATTAGTGCTAG; result = 6.19 z-score
Oligonucleotide = GGCCCAGGAGGAGGCCCCTCGTGCTAG; result = -1.67 z-score
Oligonucleotide = GACGGTCTCGGCCTGGGGACGTGCTAG; result = -0.476 z-score
Oligonucleotide = GACGGTATCGGGTTGCGGGACGTGCTA; result = 0.787 z-score
Oligonucleotide = TCAGCTTTGACTCTTTCACTGTGCTAG; result = 1.08 z-score
Oligonucleotide = AGACATTCTTTCAGTTGGAAGTGCTAG; result = 0.967 z-score
Oligonucleotide = TTAGGTATCCTACTGCTTAAGTGCTAG; result = 0.401 z-score
Oligonucleotide = TTAGATATCCGGTATCGATTAGTGCTA; result = 0.281 z-score
Oligonucleotide = CTAGATATCAGTATCGATTAGTGCTAG; result = 0.534 z-score

Series 2
Target: RING finger protein unkempt homolog, zinc fingers 1-6, GST-SBP tag (UNK, Homo sapiens, UniProt Q9C0B0, residues 30-357)
Sequence of UniProt Q9C0B0 (30-357, looked up): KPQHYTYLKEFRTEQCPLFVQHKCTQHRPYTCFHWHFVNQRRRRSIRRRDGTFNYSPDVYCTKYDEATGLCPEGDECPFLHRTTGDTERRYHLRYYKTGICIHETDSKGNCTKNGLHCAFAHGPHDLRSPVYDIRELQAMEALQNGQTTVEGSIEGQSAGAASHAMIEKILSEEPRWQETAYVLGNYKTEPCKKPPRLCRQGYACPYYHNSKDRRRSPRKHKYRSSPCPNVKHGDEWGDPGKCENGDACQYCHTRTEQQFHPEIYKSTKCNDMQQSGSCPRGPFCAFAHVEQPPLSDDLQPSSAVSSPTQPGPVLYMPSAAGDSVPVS
Method: RNA Bind-n-Seq
Molecule type: RNA
Matrix: in vitro
Concentration: not given
Notes: RNA with constant flanks, ends assumed
Baseline: input RNA pool
Reading: higher = stronger binding
Endpoint: bound/input enrichment
All sequences stand within: GGGAGUUCUACAGUCCGACGAUC … CAACAGAGGAUUGAGCAUCA
Oligonucleotide = GUUUUUUUUCUCUAUGAAUAAAUGUCACUUUUUGAGGCAAAAAGAAGGAACCGUGAACAUUUCCGACACCCUUUUCUUUGGGGUAGGCUCUGCCCCAGGCGCCGUCUCCUUCCCCCCCCA; result = 0.904 ratio
Oligonucleotide = AUUUUUUAUGUAGGUGAGCUAACACAGUGUAUCUAAUUGAAGAAUUCUGAUUAAUUUGUAACCGAUAAGUUGUAUAAAAUUUUCAUACCUUAAAGUGUUUUAGAUUACUCUUCAAGUGAA; result = 0.328 ratio
Oligonucleotide = AACAACAUCAAGGAAGUACUUCUGUUUCCUGCCAUGAAACCCGAAGACAAGAAGGAGAAUGCCGCAACCACUGAUACACUGGAAAGCACAACAGUUGGCACUUCUGUCUAGAAAAUAAUA; result = 0.279 ratio
Oligonucleotide = GCAGGAUCUUCUAAGUACCAGUGGGACAUUAUGAAAUCCCUUGGGCUCUCUGAUGACGACACCGUGAAGUUUUCUGAAGCAGAGCACUGGCUUGAUUAUUUCCCACCACUGGCCGUUCAG; result = 0.125 ratio
Oligonucleotide = CCCUCUGUCUGUGACACCACCAUUCCUCUGCUGCCACCCUUUCAGGAAGUCUAUGGUUUUCCGUUUAAAUUAAAGGAAUUGUUACUGUGGUGGGAAUAUGAAAUAAAGGAAGAAAAGGCC; result = 0.434 ratio
Oligonucleotide = UCAGGGCCAAAACUGGAACCAAGGAUUUAAUAACUAUUAUGAUCAAGGAUAUGGAAAUUAUAACCGUGCCUAUGGUGGUGAUCAGAACUAUAGUGGCUAUGGCGGCUAUGAUUAUACUGG; result = 0.274 ratio
Oligonucleotide = GAAGGACUGUAAUCAUAAUAAGCUCACUACUUGGCUAUUGUUUUUGUUUUAAUAUUCAACUACCGCCGUGUUUUAAAAAAAGUUAAAUGAAGAAUAAACACAAAUAUAAAAGCUCUGACU; result = 0.26 ratio
Oligonucleotide = AAAGAAAGAAAACCCUCUGUGCACGUUGUCAUGAACUUGCCAGCAAAAGCUAUAGAGUUUCUCCGUGCUUUCAAGUGGCUUUUAGAUGGGCAGCCAUGCAGCAGUGAGUUCCUUCCCAUA; result = 0.101 ratio

Series 3
Target: Histone acetyltransferase KAT6A, winged helix 1, GST fusion (KAT6A, Homo sapiens, UniProt Q92794, residues 1-85)
Method: protein binding microarray
Molecule type: double-stranded DNA, one strand shown
Matrix: in vitro
Concentration: not given
Notes: 8-mer, flanks averaged, mean of 2 arrays, mostly near background
Baseline: not given
Reading: higher = stronger binding
Endpoint: E-score
Construct (chain): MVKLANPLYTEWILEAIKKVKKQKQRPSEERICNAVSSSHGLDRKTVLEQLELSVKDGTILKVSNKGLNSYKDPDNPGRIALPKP
Oligonucleotide = ACAAACGT; result = -0.139
Oligonucleotide = AATCAGGG; result = -0.198
Oligonucleotide = GGCTCGAA; result = -0.103
Oligonucleotide = CAGACCAA; result = -0.331
Oligonucleotide = CGTATTTA; result = 0.024
Oligonucleotide = CTCCGTGA; result = 0.154
Oligonucleotide = ACGCACCG; result = 0.258
Oligonucleotide = ACTGCCAG; result = 0.00409
Oligonucleotide = CCTTCTTA; result = -0.0852
Oligonucleotide = ATACTTGA; result = -0.349
Oligonucleotide = AGGCAGAA; result = -0.111
Oligonucleotide = CTAATCAG; result = -0.109
Oligonucleotide = CCCAGCCA; result = -0.206
Oligonucleotide = ATACGGTG; result = 0.179
Oligonucleotide = CGCCGGAC; result = 0.434
Oligonucleotide = CCGCCTTC; result = 0.204
Oligonucleotide = CTTGTACC; result = -0.0191
Oligonucleotide = TGATCAAA; result = -0.0363
Oligonucleotide = AGTAGCTG; result = -0.234
Oligonucleotide = ACCCCCCG; result = 0.31
Oligonucleotide = ATGAACAG; result = -0.208
Oligonucleotide = ACGTCATG; result = -0.0263
Oligonucleotide = CGCCCGCG; result = 0.45
Oligonucleotide = AGATTGCT; result = -0.0971
Oligonucleotide = GCGGAAAC; result = 0.223

Series 4
Target: RNA binding protein fox-1 homolog 2, RRM domain, GST-SBP tag (RBFOX2, Homo sapiens, UniProt O43251-10, residues 100-194)
Method: RNA Bind-n-Seq
Molecule type: RNA
Matrix: in vitro
Concentration: 365 nM
Notes: natural RNA segment, single round, ends assumed
Baseline: no-protein control
Reading: higher = stronger binding
Endpoint: RBNS enrichment (R)
All sequences stand within: GGGAGUUCUACAGUCCGACGAUC … UGGAAUUCUCGGGUGCCAA
Construct (chain): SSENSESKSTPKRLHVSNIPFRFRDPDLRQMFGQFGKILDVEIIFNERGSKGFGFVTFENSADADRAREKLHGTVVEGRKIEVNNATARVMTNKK
Oligonucleotide = AGUCAAUUUUGUACAAUUAGGUAUCUGACUUUACAAGUUUGUUAUCCUUUCUAAUUUUUACUGAACUGAAAGCACAAAGAAGACUACACAGAAAAUCUGGAAACAGUUGC; result = 0.328
Oligonucleotide = ACCCCAGGCCCUACUCCCUAGCCUUUUCCAAGUGGGACAUGGAAGAGGCAGCCUGCUGCCUGGAUGCUGGUCUCCCCAGCAUCACUGUUCCCAUGGAGCUCAGGUCAGGC; result = 0.373
Oligonucleotide = CUUGUUCUUGCAUGAGAUGGCUUUGGUUGUCCCAGUACUCCAGUCUCUCCCUUCCCUUACCUGGCCCCUUGGUGCUCCUUCAGCAUUUGUGCUGUCUACCUCUCACUGGG; result = 18.9
Oligonucleotide = UUUGUUUAGACGAGAUCAUACCGGUAAAGCAGGAAUGACAAAGCUUGCUUUUCUGGUAUGUUCUAGGUGUAUUGUGACUUUUACUGUUAUAUUAAUUGCCAAUAUAAGUA; result = 0.356
Oligonucleotide = CUUCACAUUCAAAGACUGUCACCCAUGAACGUCAGACUUUGCAAAGGGGCUCUCUAAGCUGCACUGUUGUGGCUUUGUCUAAAAUUUUAAUGACGUUUCUGAGAACCAUG; result = 0.395
Oligonucleotide = CCGCCAUGUGCAGGAGCUGGCGGGCUGGCUGCCUUCUGGACCCUGGCUUCUCCCCACCGUGCGCCUGUUACAAACUGUUGUGGAUUCUGCCAGGCUCGAAGAAAAUGAUC; result = 0.557
Oligonucleotide = CAGUUUUCUGUCACUGGUGGGCACUGGACAGGCAUAGCAGACUCUCUUGUGGCCACACUAGGUUGUCGCCUUUCAGGCAGUGUCCCGCCACCUUUGCUUCCCGCUCCUUC; result = 0.382
Oligonucleotide = ACCUGUUAGGGAAUAUCUAUUGUCUUGAAGUCAGAGUAGCUCCCCAUUGUUGAGAUCAGUGGGCAUAUACCAAGCUCCACCCCCAGUGUCAGCUUUGUGCAAUUUGCCUU; result = 0.673
Oligonucleotide = AAGCAUUAGUUGGAAGAUGCAAAGUUUAUACCUGAUGAUCAGGGCAGUAGGCAUAAUUCAGCAACAAACAAUCUUCCUUUGGGAGAAACCUGUUCAUUCCAAUCUUCUAA; result = 0.549
Oligonucleotide = GGUUUAAACCAAACGGAACUCUUCAUCUUAAACUACACGUUGAAAAUCAACCCAAUAAUUCUGUAUUAACUGAAUUCUGAACUUUUCAGGAGGUACUGUGAGGAAGAGCA; result = 11.3
Oligonucleotide = CCCCAGCCACAGGUAUGUGGAAUACGGUGAGGAAAAAAAAAAUUAAAAAAAAAAUGCAAGCUGUCAGGAUGCUUAAGCUCUUUUCAGACAUCUGCAGUUUCAUCCCUACC; result = 0.451
Oligonucleotide = GCCUUACCUCCUUCUAAUGGGUAAAGGGGCUUUCUUAUCAAGCAUGUCUGACAUCCCUGGAGAGGCUACGCUGUUCCAGGUGGCACUGGGAUGCCAGUUGGCAGCUGGAU; result = 0.682

Series 5
Target: PABPC1L2, full length, GST fusion (mouse, UniProt A0ABA7IW68)
Method: RNAcompete
Molecule type: RNA
Matrix: in vitro
Concentration: 20 nM
Notes: 7-mer, probes averaged, single round
Baseline: mean of 7-mers
Reading: higher = stronger binding
Endpoint: 7-mer Z-score
Construct (chain): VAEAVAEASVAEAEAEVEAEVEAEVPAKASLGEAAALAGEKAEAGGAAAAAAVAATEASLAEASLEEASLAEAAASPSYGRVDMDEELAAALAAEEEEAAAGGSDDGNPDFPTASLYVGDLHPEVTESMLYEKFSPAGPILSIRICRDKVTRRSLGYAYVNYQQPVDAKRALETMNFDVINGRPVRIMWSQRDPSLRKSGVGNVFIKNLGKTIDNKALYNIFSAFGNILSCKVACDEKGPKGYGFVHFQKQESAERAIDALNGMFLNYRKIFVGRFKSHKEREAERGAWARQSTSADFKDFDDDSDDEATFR
Oligonucleotide = GGAGUGG; result = 0.202
Oligonucleotide = UAAUCGC; result = -0.258
Oligonucleotide = AGAACCG; result = -0.13
Oligonucleotide = GGAAUCU; result = -0.222
Oligonucleotide = GCCGAGU; result = -0.204
Oligonucleotide = CCCCAUC; result = -0.485
Oligonucleotide = CAAGGGU; result = 0.182
Oligonucleotide = UCGUGCU; result = -0.271
Oligonucleotide = CCAAGCU; result = -0.195
Oligonucleotide = CAUCUUU; result = -0.139
Oligonucleotide = CGCAGAG; result = -0.0482
Oligonucleotide = AGGGCAG; result = 0.617
Oligonucleotide = GGACACC; result = 0.0696
Oligonucleotide = GUGGGGC; result = 0.425
Oligonucleotide = ACUUAAA; result = 0.782
Oligonucleotide = CAUUGAC; result = -0.126
Oligonucleotide = UUUCGCG; result = -0.454
Oligonucleotide = UUUCGUU; result = -0.566
Oligonucleotide = CUAAUCU; result = -0.267
Oligonucleotide = GGGAAGC; result = 0.0497
Oligonucleotide = AGGGGGA; result = 0.392
Oligonucleotide = AAAACUG; result = 4.91
Oligonucleotide = UACCACG; result = 0.0932
Oligonucleotide = GAAACUU; result = 0.361
Oligonucleotide = UAAACUU; result = 0.476
